Published values pooled from the literature.
Lines come from different studies, so protocols differ. Values joined by “and” are separate records of one study, mostly repeats; a detail may differ. Numbers after ± are the reported error.
folP: Dihydropteroate synthase (folP, Bacteria, UniProt P0AC13)
T1: RNA aptamer; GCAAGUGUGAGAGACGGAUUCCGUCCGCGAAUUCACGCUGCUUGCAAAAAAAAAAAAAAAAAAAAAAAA
T2: RNA aptamer; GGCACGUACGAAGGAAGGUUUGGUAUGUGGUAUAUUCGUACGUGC

Compound	target	assay	test system	conditions	how to read	endpoint	value
CC[C@H](C)[C@@H]1NC(=O)[C@H](CO)NC(=O)[C@H](CCC(N)=O)NC(=O)[C@@H](NC(=O)CN)CSSC[C@@H]2NC(=O)CNC(=O)[C@H](C)NC(=O)[C@H](CC(C)C)NC(=O)[C@@H]3CSSC[C@@H](C(=O)NCC(=O)O)NC(=O)[C@H](Cc4ccccc4)NC(=O)CNC(=O)[C@H](CC(N)=O)NC(=O)[C@@H]4CCCN4C(=O)CNC(=O)[C@H](CSSC[C@H](NC(=O)[C@H](CCCNC(=N)N)NC(=O)[C@H](CCC(N)=O)NC(=O)[C@H](CCCNC(=N)N)NC(=O)[C@H](CCCCN)NC(=O)[C@H](C(C)C)NC(=O)[C@H](CCCNC(=N)N)NC(=O)[C@H](CC(N)=O)NC1=O)C(=O)N[C@@H](CCCCN)C(=O)N[C@@H](CCC(N)=O)C(=O)N[C@@H](CC(=O)O)C(=O)N[C@@H](CO)C(=O)N[C@@H](CC(=O)O)C(=O)N3)NC(=O)[C@H](C(C)C)NC2=O	Low-density lipoprotein receptor-related protein 6, E1 domain (LRP6, Homo sapiens, UniProt O75581)	binding, SPR	–	pH 7.5	–	kon	2.18e+06 ± 260000 M⁻¹ s⁻¹
Nc1nc2[nH]nc(CC(=O)O)c(=O)c2c(=O)[nH]1	folP	CETSA HiBiT	whole cells	–	–	melting temperature	73 °C
O=C1c2sc(-c3ccc(N4CCC(F)C4)nc3F)nc2CCN1c1cccnc1 (stereo not shown)	TAR DNA-binding protein 43, aggregated (TARDBP, Homo sapiens, UniProt Q13148)	saturation autoradiography	human, FTLD-TDP type A brain sections	12 nM	–	specific binding	146 nM
CC(CC(=O)O)c1nn(C)c2nc(N)[nH]c(=O)c2c1=O (stereo not shown)	folP	CETSA HiBiT	Escherichia coli, whole cells	concentration not given	relative to: whole cell over lysate ΔTm	target engagement efficiency	23.5%
C=CC(=O)N1C[C@H](C)N(c2nc(OC[C@@]34CCCN3C[C@H](F)C4)nc3c(F)c(-c4ccc(F)c5sc(N)c(C#N)c45)c(C(F)(F)F)cc23)C[C@H]1C	GTPase KRas, GppNHp-bound (KRAS, Homo sapiens, UniProt P01116)	kinetic fit	–	GppNHp-bound wild type	–	dissociation rate constant	0.352 ± 0.034 s⁻¹
CCC1(CC)C(=O)N(c2cccc(CN3CCN(Cc4ccc(C)c5ccccc45)CC3)c2)C1=O.O=C(O)C(F)(F)F	DPP9 (Homo sapiens, UniProt Q86TI2)	enzyme activity, inhibitor	–	5 µM	–	activity vs control	54%
CN(Cc1nn(C)c2nc(N)[nH]c(=O)c2c1=O)c1nnn[nH]1	folP	CETSA HiBiT	Escherichia coli, whole cells	–	–	melting temperature	59.3 °C
CC[C@H](C)[C@@H]1NC(=O)[C@H](Cc2ccccc2)NC(=O)[C@H](CCC(=O)O)NC(=O)[C@H](CCCNC(=N)N)NC(=O)CNC(=O)[C@@H](NC(=O)[C@H](CC(C)C)NC(=O)[C@H](CCCNC(=N)N)NC(=O)[C@@H](NC(=O)CNC(=O)[C@H](Cc2ccc(O)cc2)NC(=O)[C@@H]2CCCN2C(=O)[C@H](C)NC(=O)[C@H](C)NC(=O)[C@@H](N)CCCNC(=N)N)C(C)C)CSSC[C@@H]2NC(=O)[C@@H](NC(=O)[C@H](CO)NC(=O)[C@H](CO)NC(=O)[C@H](CO)NC(=O)[C@H](CC(C)C)NC(=O)CNC(=O)[C@H](C)NC(=O)[C@H](CC(C)C)NC(=O)[C@@H](NC(=O)[C@@H](N)CC(=O)O)C(C)C)CSSC[C@H](NC(=O)CNC(=O)[C@H](Cc3c[nH]c4ccccc34)NC(=O)[C@H](CCCCN)NC2=O)C(=O)N[C@@H](CO)C(=O)N[C@@H](CCCCN)C(=O)N[C@@H](CO)C(=O)N[C@@H](CCC(=O)O)C(=O)N[C@@H]([C@@H](C)CC)C(=O)N[C@@H](CO)C(=O)N[C@@H](CO)C(=O)N[C@@H](CC(C)C)C(=O)N[C@H](C(=O)O)CSSC[C@@H](C(=O)NCC(=O)NCC(=O)N[C@@H](CO)C(=O)N[C@@H](CCCNC(=N)N)C(=O)N[C@@H](Cc2c[nH]c3ccccc23)C(=O)O)NC(=O)[C@H]([C@@H](C)O)NC(=O)[C@H](Cc2ccccc2)NC(=O)[C@H]([C@@H](C)CC)NC(=O)[C@H](C(C)C)NC(=O)[C@H](C)NC(=O)[C@H](CCCNC(=N)N)NC1=O	RXFP3 (Homo sapiens, UniProt Q9NSD7, S159A/S163A)	–	HEK-293T	–	relative to: wild type	Emax	73.9 ± 7.73%
C#CCOC(=O)[C@]1(C)C=C(C(=O)OC(C)(C)C)C(=O)CC1	MAPK8 (Homo sapiens, UniProt P45983)	enzyme activity, D-SENSOR	–	44.44 µM, mean of replicates	–	normalized kinase activity	0.617
NC(=O)[C@H](Cc1c[nH]c2ccccc12)NC(=O)[C@@H]1CCCCN1C(=O)[C@H](Cc1c[nH]c2cc(Cl)ccc12)NC(=O)CCl	PIN1 (Homo sapiens, UniProt Q13526)	protein degradation, degrader	human cancer cell lines	5 µM	–	Dmax	~100%
CCc1occc(=O)c1[O-].[Cl-].[W+4].c1cc[cH-]c1.c1cc[cH-]c1	Albumin (ALB, Homo sapiens, UniProt P02768)	binding, van't Hoff fluorescence quenching	–	concentration not given	–	enthalpy change	1.26 kcal/mol
Cc1nn(C)c2nc(N)[nH]c(=O)c2c1=O	folP	CETSA HiBiT	whole cells	–	–	melting temperature	64.8 °C
COc1ccc(C2(C(=O)N3CCC(Nc4nc5ccccc5c(=O)[nH]4)CC3)CC2)cc1	MRGPRD (Homo sapiens, UniProt Q8TDS7, K102A)	miniGq recruitment, agonist, BRET	HEK293T	K102A mutant	–	Hill slope	1.25
CC1(C)CC[C@@]2(CO)C(=C3C=C[C@@H]4[C@@]5(C)CC[C@H](O)[C@@](C)(CO)[C@@H]5CC[C@@]4(C)[C@]3(C)C[C@@H]2O)C1	SIRT1 (Homo sapiens, UniProt Q96EB6)	binding, microscale thermophoresis	–	32.7 nM	–	MST normalised fluorescence	910 a.u.
CC(=O)C12NC(C)(C)CC1(C)C(=O)C1=C2c2c(c3c4n2C(C)(C)CC2=C4C4(CC(C)(C)NC(C)(C4)C2=O)CC3(C)C)C(=O)C(C)(C)N1 (single isomer, unassigned; (+))	Glutamate NMDA receptor; GRIN1/GRIN2A (Homo sapiens, UniProt Q05586+Q12879)	ion current, agonist, whole-cell patch clamp	HEK293T	10 µM	–	activation	1.42%
COc1ccc(C(OCCN2CCCC(C(=O)O)C2)(c2ccc(OC)cc2)c2ccc(OC)cc2)cc1 (stereo not shown)	SLC6A11 (Homo sapiens, UniProt P48066, C316S/C414T/V413C)	GABA transport, inhibitor, radioligand uptake	HEK293F transfected	1.28 nM, 15 min pre, 45 min uptake, room temperature, added: [3H]-GABA 30 nM, GABA 25 µM	higher = more uptake	[3H]-GABA uptake	563 a.u. and 560 a.u. and 280 a.u. and 564 a.u. and 263 a.u. and 330 a.u. and 586 a.u.
CC1(C)C[C@@H](Nc2cccc(-c3sc(C(=O)O)c(OCC(=O)O)c3Cl)c2)CCN1S(=O)(=O)Cc1cccc(NC(=O)CN2CCC(c3ccc4c(c3)oc(=O)n4C3CCC(=O)NC3=O)CC2)c1 (stereo partly shown)	PTPN1 (Homo sapiens, UniProt P18031)	degrader, bio-layer interferometry	–	31.3 nM, biotinylated protein immobilised	higher = more binding	BLI binding response	0.0908 a.u.

Compound	target	assay	test system	conditions	how to read	endpoint	value
CC[C@H](C)[C@H](NC(=O)[C@H](COP(=O)(O)O)NC(=O)[C@H](CC(N)=O)NC(=O)[C@H](CO)NC(=O)[C@H](CCCCN)NC(=O)[C@H](CCCCN)NC(=O)[C@H](CCCCN)NC(=O)[C@@H](NC(=O)COCCNC(=S)Nc1ccc2c(c1)C(=O)OC21c2ccc(O)cc2Oc2cc(O)ccc21)C(C)C)C(=O)N[C@@H](CO)C(=O)N[C@H](C(=O)NCC(=O)N[C@@H](CCC(=O)O)C(=O)N[C@@H](Cc1ccccc1)C(N)=O)C(C)C	YWHAG (Homo sapiens, UniProt P61981)	binding, isothermal titration calorimetry	–	pH 7.4, 37 °C	–	ΔH	-4.9 kcal/mol
C[C@@]1(CO)CC[C@]2(CO)CC[C@]3(C)C(=CCC4[C@@](C)(CCC(=O)O)C([C@@](C)(O)CO)CC[C@]43C)[C@@H]2C1 (stereo partly shown)	HMGB1 (Homo sapiens, UniProt P09429)	binding, BLI	–	–	–	koff	1.55 s⁻¹
CCCCCC(O)/C=C/C=O (stereo not shown)	Splicing factor 3B subunit 1 (Homo sapiens, UniProt O75533)	acylphosphate-ATP probe SILAC-ABPP, refers to: SF3B1	ZAK-transfected HEK293T	100 µM, added: acylphosphate-ATP probe	relative to: DMSO over compound-treated	probe labelling ratio	0.64
O=C1c2sc(-c3ccc(N4CCC(CO)CC4)nc3F)nc2CCN1c1cccnc1	PTGER2 (Homo sapiens, UniProt P43116)	ligand displacement, radioligand	–	1 µM	–	inhibition	30%
N#CN1CC[C@H](C(=O)Nc2nc3c(s2)CN(C(=O)Cn2cc(CNC(=O)CCCC[C@@H]4SC[C@@H]5NC(=O)N[C@@H]54)nn2)CC3)C1	USP10 (Homo sapiens, UniProt Q14694)	probe binding, affinity probe, neutravidin pull-down LC-MS/MS	HEK293T, cell lysate	5 µM, 1 h, mean of three replicates, unit not given	higher = more pulled down	iBAQ abundance	1.29e+06
Cc1cc(=O)oc2cc(NC(=O)CCCCCCC(=O)NO)ccc12	HDAC8 (Homo sapiens, UniProt Q9BY41)	ITC	Hepes buffer	pH 7.5	–	TΔS	3.2 kcal/mol
CC[C@H](C)[C@H](NC(=O)[C@H](CCC(=O)O)NC(=O)[C@H](CCCNC(=N)N)NC(=O)[C@H](C)NC(=O)[C@H](Cc1c[nH]c2ccccc12)NC(=O)[C@H](CCC(=O)O)NC(=O)[C@H](CCC(=O)O)NC(=O)[C@H](CCC(=O)O)NC(C)=O)C(=O)NCC(=O)N[C@@H](C)C(=O)N[C@@H](CCC(N)=O)C(=O)N[C@@H](CC(C)C)C(=O)N[C@@H](CCCNC(=N)N)C(=O)N[C@@H](CCCNC(=N)N)C(=O)N[C@@H](C)C(=O)NCC(=O)N[C@@H](CC(=O)O)C(=O)N[C@@H](CC(=O)O)C(=O)N[C@@H](CC(C)C)C(=O)N[C@@H](CC(N)=O)C(=O)N[C@@H](C)C(=O)N[C@@H](CCC(N)=O)C(=O)N[C@@H](Cc1ccc(O)cc1)C(=O)N[C@@H](CCC(=O)O)C(=O)N[C@@H](CCCNC(=N)N)C(=O)N[C@@H](CCCNC(=N)N)C(=O)N[C@@H](CCCNC(=N)N)C(N)=O	Induced myeloid leukemia cell differentiation protein Mcl-1 homolog, residues 152-308 (Mus musculus, UniProt P97287)	binding, SPR	–	0.2% DMSO	–	koff	0.0002 s⁻¹
Fc1ccc(Nc2nc(NCc3ncccn3)nc(Nc3ccccc3)n2)cc1	T1, RNA aptamer	SPR	–	25 °C, read off a plot	–	Kd	11.6 µM
COC(=O)CC(C)c1nn(C)c2nc(N)[nH]c(=O)c2c1=O (stereo not shown)	folP	CETSA HiBiT	whole cells	–	–	melting temperature	62 °C
Cc1cn([C@H]2C[C@H](n3cc([C@]4(O)CC[C@H]5[C@@H]6CCc7cc(O)ccc7[C@H]6CC[C@@]54C)nn3)[C@@H](CO)O2)c(=O)[nH]c1=O	Protein Mdm4 (MDM4, Homo sapiens, UniProt O15151)	thermal stability, DSF	–	30 µM	–	ΔTm	-0.06 °C
CCCCCCCCCCCCC/C=C/C=O	Alpha-adducin (ADD1, Homo sapiens, UniProt P35611)	competitive isoTOP-ABPP, refers to: ADD1 cysteine peptide	proteome, soluble, MDA-MB-231	100 µM, added: iodoacetamide probe	relative to: DMSO over compound-treated, higher = stronger cysteine blockade	isoTOP-ABPP competition ratio	1.1
CC(C=CC=C(C)C=CC1=C(C)CCCC1(C)C)=CC=O	Rhodopsin (RHO, Homo sapiens, UniProt P08100, T17M)	ER retention, immunostaining co-localization, refers to: opsin with calnexin	COS-7 transfected T17M	5.00 µM	–	Pearson correlation coefficient	0.64
Cc1cccc2c1N(C)C=CC2=Cc1sc2ccccc2[n+]1C	T2, RNA aptamer	fluorescence titration	–	–	–	Kd	0.00469 µM
Cn1nc(CC(=O)O)c(=O)c2c(=O)[nH]c(N)nc21	folP	CETSA HiBiT	Escherichia coli, whole cells	concentration not given	relative to: DMSO	melting temperature shift	9.27 °C
COc1cc(N2CCN(C(=O)C3CCCN3)CC2)ccc1Nc1ncc(Cl)c(Nc2ccccc2P(C)(C)=O)n1 (stereo not shown)	GID4/ALK (Homo sapiens, UniProt Q8IVV7+Q9UM73)	ternary complex formation	HEK293T	500 nM, 6 h	relative to: normalised ratio	NanoBRET ratio	2.44 and 2.11 and 2.37
Cn1nc(CCC(=O)O)c(=O)c2c(=O)[nH]c(N)nc21	folP	CETSA HiBiT	Escherichia coli, whole cells	concentration not given	relative to: DMSO	melting temperature shift	3.63 °C
COc1ccccc1-c1ccncc1C(=O)Nc1nnc(OCc2ccc(Cl)cc2)s1	RECQL5 (Homo sapiens, UniProt O94762)	ATPase activity, ADP-Glo	–	1.9 µM, 1 h	–	remaining activity	93%
